# Experimental data pooled from the literature.
# A part holds a random share of what one study measured. Positions count from the first letter of the parent shown.

# Series 1
# Target: RNA binding protein fox-1 homolog 2, RRM domain, GST-SBP tag (RBFOX2, Homo sapiens, UniProt O43251-10, residues 100-194)
# Technique: RNA Bind-n-Seq
# Form: RNA
# Medium: in vitro
# Tested at: 365 nM
# Notes: natural RNA segment, single round, ends assumed
# Relative to: no-protein control
# Direction: higher = stronger binding
# Residues (chain): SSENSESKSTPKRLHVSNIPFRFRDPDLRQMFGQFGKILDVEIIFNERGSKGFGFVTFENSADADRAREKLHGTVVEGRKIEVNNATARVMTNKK
Strand,RBNS enrichment (R)
GGGAGUUCUACAGUCCGACGAUCUGAGGCCUGAGUUUUCUGGCUCUUAAAGCAUAGAUCAUUUCACCUGAUGUUUUUGAAGCAUCCUAAGUACAGUAGAGUAGAAAACUGAUUUCUUUGUUAAUUGUACACUGUGGAAUUCUCGGGUGCCAA,0.355
GGGAGUUCUACAGUCCGACGAUCCUUUCAGUGACCACCACCUCCCUAUGCAGAAGGGAUGUCAAUGUCAACAGCAGGGACUGAGACCUUUCUCUGUGCCACUCUCCUCACUGGGGCUCUGCCAUGUUACACUAUGGAAUUCUCGGGUGCCAA,0.574
GGGAGUUCUACAGUCCGACGAUCCUUGAGAAUUAAGAGCUGGCAGCUGCUGAUGGUGUUUCCCAACCCCCCUCACUUCCCAAGACAACCCCCAGCUUCAGGUCCUCAUGGGGAGGGGAGGGCACGUUCUUGACUGGAAUUCUCGGGUGCCAA,0.684
GGGAGUUCUACAGUCCGACGAUCGAUCAAUGCAAUAUGGGAAUAAUCAGUGAGGUUGGCUUUUUUCCCUACUGUUAAAUAGCAUUUGUCUAAUUGCUAAUAAGCCUGUCGUUACCAAAUUUUAUAUAAGAAUGUGGAAUUCUCGGGUGCCAA,0.556

# Series 2
# Target: Interferon regulatory factor 3, full length, phosphomimetic (IRF3, Homo sapiens, UniProt Q14653, residues 1-427, S386D/S396D/S398D/S402D/T404D/S405D)
# Technique: protein-binding microarray
# Form: double-stranded DNA, one strand shown
# Medium: in vitro
# Tested at: 2540 nM top
# Notes: 60-bp whole probe
# With: salmon DNA 0.4 mg/ml
# Relative to: random background probes
# Direction: higher = stronger binding
# Construct (chain): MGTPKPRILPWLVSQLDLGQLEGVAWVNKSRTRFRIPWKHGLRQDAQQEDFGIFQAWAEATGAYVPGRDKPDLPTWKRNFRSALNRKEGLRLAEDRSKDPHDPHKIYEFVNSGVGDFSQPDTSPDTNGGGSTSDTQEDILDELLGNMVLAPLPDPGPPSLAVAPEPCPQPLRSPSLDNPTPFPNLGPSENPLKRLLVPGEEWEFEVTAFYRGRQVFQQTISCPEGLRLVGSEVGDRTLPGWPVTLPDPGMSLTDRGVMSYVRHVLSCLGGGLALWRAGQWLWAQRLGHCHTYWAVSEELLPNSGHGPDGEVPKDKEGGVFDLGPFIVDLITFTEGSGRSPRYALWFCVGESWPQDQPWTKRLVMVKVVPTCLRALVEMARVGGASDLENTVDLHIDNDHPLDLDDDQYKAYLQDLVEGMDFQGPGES
Strand,fitted relative affinity [z-score]
GCCTAGCACGACGGTTTCCTTCTCCTAACGTGCTAGGTCTTGATTCGCTTGACGCTGCTG,10.2
GCCTAGCACTCAAGTCTCAAAATTAGACTGTGCTAGGTCTTGATTCGCTTGACGCTGCTG,0.08
GCCTAGCACTATTGTTTCCTTCCTCTTTTGTGCTAGGTCTTGATTCGCTTGACGCTGCTG,7.25
GCCTAGCACGACGATATCAGGTTTCGAGACGTGCTAGTCTTGATTCGCTTGACGCTGCTG,1.97

# Series 3
# Target: CCNA2, cyclin fold, Cln2 fusion (human)
# Technique: yeast growth competition, sequencing
# Medium: yeast
# Notes: strong parent motif
# Relative to: not given
# Direction: higher = stronger binding
# Starting sequence: CDKN1B docking peptide (human); PSACRNLFGPVDH; partner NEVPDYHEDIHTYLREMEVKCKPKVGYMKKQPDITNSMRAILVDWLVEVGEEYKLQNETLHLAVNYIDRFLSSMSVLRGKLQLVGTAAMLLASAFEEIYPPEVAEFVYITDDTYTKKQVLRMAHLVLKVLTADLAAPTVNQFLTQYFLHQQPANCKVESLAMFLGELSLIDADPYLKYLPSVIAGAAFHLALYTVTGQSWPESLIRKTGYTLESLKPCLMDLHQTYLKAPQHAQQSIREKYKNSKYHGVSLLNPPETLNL
Substitution,normalised enrichment score
L7W,0.622
F8L,0.392
C4G,0.649
G9C,1.12
G9V,1.42

# Mixed results
Molecule,target,test,test system,conditions,scale,measurement,result
"PhoQ, residues 284 288 289 292 302 303 TASMAF","PhoP, residues 12 14 15 18 19 GQAIL (Escherichia coli, UniProt P23836)","Sort-seq, refers to: YFP reporter",E. coli,"PhoQ-PhoP variant library, with: 10 µM Mg2+","relative to: high Mg2+ state, higher = stronger signaling",fold induction,17.5
